Experimental data from different studies.
Protocols differ between the studies behind these lines. Several values in a cell are separate wells, animals, samples, runs or records. ± gives the spread as reported.

The fold change of C=CC1=C(C)c2cc3[n-]c(cc4nc(cc5[n-]c(cc1n2)c(C)c5C=C)C(C)=C4CCC(=O)O)c(CCC(=O)O)c3C.[Zn+2] is reported as 3.15 (SH-SY5Y; RNA-seq, measured: CMKLR1 mRNA; 5 µM, 5 h; relative to: untreated cells).
Nc1cccc2c1C(=O)N(C1CCC(=O)NC1=O)C2=O (stereo not drawn): “surface marker level” 201% (RPMI-8226; flow cytometry, measured: CD63; concentration not given; relative to: comparator compound alone).
CC(=O)Nc1ccc(OC(=O)c2ccccc2O)cc1 gave an activity score of 3 (human iPSC-derived cardiomyocytes; MyBP-C/MYH ratio, plate-normalised SD score; concentration not given, primary screen; direction not given).
Cc1ccccc1OCCn1cnc2cc([N+](=O)[O-])ccc2c1=O gave an efficacy of 24% (C127 LDR GFP reporter cells; silenced GFP reporter induction, activator, high-content imaging; retest, two-run mean).
CCCCN1C[C@H](O)[C@@H](O)[C@@H](O)[C@H]1CO gave an IC50 of 11600 nM (sample BB patient fibroblasts; Gb3 level lowering, LC-MS/MS, measured: Gb3 d18:1/24:0; 216 h).
For C[C@]12CCCN1CC1=NNC(=O)c3cc(F)cc4[nH]c2c1c34, the EC50 was 400 nM (SW-620 colorectal cancer cells; cell viability; concentration not given, with: with temozolomide).
Nc1ncnc2c1ncn2[C@@H]1O[C@H](CO)[C@@H](O)[C@H]1O has a viability of 87.2 a.u. and 82.9 a.u. and 84.1 a.u. (activated human T cells; 316 nM, 72 h; higher = more viable cells).
With CC[C@H]1OC(=O)[C@H](C)[C@@H](O[C@H]2C[C@@](C)(OC)[C@@H](O)[C@H](C)O2)[C@H](C)[C@@H](O[C@@H]2O[C@H](C)C[C@H](N(C)C)[C@H]2O)[C@](C)(O)C[C@@H](C)C(=O)[C@H](C)[C@@H](O)[C@]1(C)O the activity score was 3.7 (human iPSC-derived cardiomyocytes; MyBP-C/MYH ratio, plate-normalised SD score; concentration not given, primary screen; direction not given).
Clc1ccc(N/N=C(\c2ccccc2)c2ccccn2)nc1 gave an apoptotic cells of roughly 60% (SK-BR-3; annexin V flow cytometry; 0.5 µM, 48 h).
The cytotoxicity of Cc1ccc(CNC(=O)Cn2cc(CSc3nc4ccccc4[nH]3)nn2)cc1 is reported as 90.1% (HEK293; MTT; 250 ppm).
The maximum efficacy of CN(C)S(=O)(=O)c1cccc(NC(=S)N/N=C/c2ccco2)c1 is reported as 25% (C127 LDR GFP reporter cells; silenced GFP reporter induction, activator, high-content imaging; independent samples, two-run mean).
The EC50 of CCn1cc(-c2cc(Cn3ccnc3)cc3c2CCN([C@H](c2cc(OC)ccn2)C2CC2)C3=O)c(C(F)(F)F)n1 is reported as greater than 30000 nM (SK-BR-3; cell growth, inhibitor; 120 h).
For COC(=O)C(N)CS (stereo not drawn), the activity score was 3.2 (human iPSC-derived cardiomyocytes; MyBP-C/MYH ratio, plate-normalised SD score; concentration not given, primary screen; direction not given).
For NCCOc1cc(NC(=O)c2cc(OCc3ccc(F)cc3)cc(C(=O)Nc3cc(OCCN)c4ccccc4n3)n2)nc2ccccc12, the selectivity ratio was 0.9 (U2OS; cell viability, CellTiter-Glo; 72 h; relative to: IC50 U2OS over WI-38).
With O=C1CN(c2nc(-c3ccccc3)c3cc(Cl)ccc3n2)c2ccccc2N1 the efficacy was 34% (C127 LDR GFP reporter cells; silenced GFP reporter induction, activator, high-content imaging; retest, two-run mean).
COc1cnc2cccc(N3CCc4c(cc(Cn5ccnc5C)cc4-c4cn(C)nc4C(F)(F)F)C3=O)c2c1 gave an EC50 of greater than 30000 nM (NCI-H838; cell growth, inhibitor; 120 h).
The inhibition of CCCc1cc(=O)nc(SCC(=O)Nc2ccc(F)cc2)[nH]1 is reported as 29 ± 4% (cells, COS-1, expressing proMMP-9; cell migration, 2D collagen dot migration; 50 µM, 18 h).
With C=Cc1c2[n-]c(c1C)/C=c1\[n-]/c(c(C)c1C=C)=C\c1[n-]c(c(CCC(=O)O)c1C)/C=c1\[n-]c(c(C)c1CCC(=O)O)=C2.[Sn+4] the fold change was 3.48 (SH-SY5Y; RNA-seq, measured: SYT12 mRNA; 5 µM, 5 h; relative to: untreated cells).
For NNc1nc(-c2ccc(Cl)cc2)c2c(NC(=O)c3ccccc3)nnc-2[nH]1, “mean growth percent” read 101% (NCI60 cell panel; SRB; 10 µM).
For CC/C(=N\NC(=O)NCc1cccc(O)c1)c1ccc(O)c(C)c1O, “TAZ band intensity” read 0.21 ± 0.11 (SK-OV-3; Western blot; 10 µM, 1 h, 2D culture, unit not given; relative to: DMSO).
For CCn1cc(-c2cc(Cn3ccoc3=N)cc3c2CCN([C@@H](C)c2cc(OC)ccn2)C3=O)c(C(F)(F)F)n1, the EC50 was 4.08 nM (SNU478; cell growth; 120 h).
CCNC(=O)c1noc(-c2cc(C(C)C)c(O)cc2O)c1-c1ccc(CN2CCOCC2)cc1 gave a MyBP-C level of 17% (MYBPC3 iPSC cardiomyocytes; plate-normalised; concentration not given, 24 h, hit retest).
Clc1ccc(C2(c3ccc(-c4cn[nH]c4)cc3)CCNCC2)cc1 has a Bcl-2 MFI of 3910 a.u. (primary CLL cells; flow cytometry; human; 0.1 µM, 24 h; relative to: DMSO, higher = more protein).
CN(c1ccccc1)S(=O)(=O)c1nnc(NC(=O)c2ccccc2)s1 gave an efficacy of 180% (C127 LDR GFP reporter cells; silenced GFP reporter induction, activator, high-content imaging; retest, two-run mean).
The EC50 of C[C@H]1CNCCN1c1nccc(-c2noc3c2CCC[C@@]32CCCc3sc(N)c(C#N)c32)n1 is reported as 2360 nM (Ba/F3 (HRAS dependent); cell growth; 72 h, without IL-3).
With O=C(/C=C/C=C/C=C/C1CCCCC1)NC1=C[C@@](O)(/C=C/C=C/C=C/C(=O)NC2=C(O)CCC2=O)[C@@H]2O[C@@H]2C1=O the GI50 was greater than 30000 nM (PaTu 8902; cell growth, CellTiter-Glo; 78 h).
With COc1ccc(-n2nc(C(C)=O)s/c2=N\N=C(/C)c2ccc(NC(=O)c3ccc(C)cc3)cc2)cc1 the viability was 11.9% (HepG2; 2.5 µM).
For Cn1cc(-c2ccc(-c3cncc(Cl)c3N3CCC4(CCNC4=O)CC3)cc2)cn1, “log2 fold change” read 1.65 (COLO 205; gene expression, microarray, measured: DDIT4 mRNA; concentration not given, 6 h; relative to: untreated cells).
The activity score of O=C(/C=C/c1ccccc1)c1ccc(O[C@@H]2O[C@H](CO)[C@@H](O)[C@H](O)[C@H]2O)cc1O is reported as -3.1 (human iPSC-derived cardiomyocytes; MyBP-C/MYH ratio, plate-normalised SD score; concentration not given, primary screen; direction not given).
Cc1n[nH]c2nc(-c3ccc(Cl)cc3)c3c(NC(=O)c4ccccc4)nnc-3n12 has a cell growth of 101% (M14; SRB; 10 µM, NCI60 single-dose screen; relative to: untreated).
With COc1ccc2nc([S@@+]([O-])Cc3ncc(C)c(OC)c3C)[nH]c2c1 the activity score was -3.5 (human iPSC-derived cardiomyocytes; MyBP-C/MYH ratio, plate-normalised SD score; concentration not given, primary screen; direction not given).
c1ccc2[nH]ccc2c1 — result for “mRNA level, LS mean”: 2.06 counts per million (HCT-8; RNA-seq, measured: EGR2; concentration not given).
The activity score of NCCCC[C@H](N[C@@H](CCc1ccccc1)C(=O)O)C(=O)N1CCC[C@H]1C(=O)O is reported as -3.6 (human iPSC-derived cardiomyocytes; MyBP-C/MYH ratio, plate-normalised SD score; concentration not given, primary screen; direction not given).
For Cc1cc2c(cc1N1C(=O)c3cccc4c(CCCO)ccc(c34)C1=O)n(C)c(=O)n2C (racemic), the GI50 was 7980 nM (5637; cell growth, alamarBlue; urinary bladder).
CC(N/C(=N\C#N)Nc1ccncc1)C(C)(C)C (stereo not drawn) has an activity score of 3.3 (human iPSC-derived cardiomyocytes; MyBP-C/MYH ratio, plate-normalised SD score; concentration not given, primary screen; direction not given).
For Cc1c(C(=O)O)ccc2c3n(nc12)[C@@H]1[C@H](C3)N(CC2CC2)[C@@]2(C(=O)Nc3cc(Cl)ccc32)[C@H]1c1cccc(Cl)c1F, the GI50 was 0.85 nM (JAR; cell growth, alamarBlue; unbound).

Excerpt of the above:
c1ccc2[nH]ccc2c1 — result for “mRNA level, LS mean”: 2.06 counts per million (HCT-8; RNA-seq, measured: EGR2; concentration not given).
The activity score of NCCCC[C@H](N[C@@H](CCc1ccccc1)C(=O)O)C(=O)N1CCC[C@H]1C(=O)O is reported as -3.6 (human iPSC-derived cardiomyocytes; MyBP-C/MYH ratio, plate-normalised SD score; concentration not given, primary screen; direction not given).
For Cc1cc2c(cc1N1C(=O)c3cccc4c(CCCO)ccc(c34)C1=O)n(C)c(=O)n2C (racemic), the GI50 was 7980 nM (5637; cell growth, alamarBlue; urinary bladder).
CC(N/C(=N\C#N)Nc1ccncc1)C(C)(C)C (stereo not drawn) has an activity score of 3.3 (human iPSC-derived cardiomyocytes; MyBP-C/MYH ratio, plate-normalised SD score; concentration not given, primary screen; direction not given).
